Experimental data from different studies.
Compare with care: the assays were run in different laboratories. “And” joins repeats or separate records; there may be more than shown. ± marks the error that the study gave.
Chain of UniProt Q53GS9 (whole entry, looked up): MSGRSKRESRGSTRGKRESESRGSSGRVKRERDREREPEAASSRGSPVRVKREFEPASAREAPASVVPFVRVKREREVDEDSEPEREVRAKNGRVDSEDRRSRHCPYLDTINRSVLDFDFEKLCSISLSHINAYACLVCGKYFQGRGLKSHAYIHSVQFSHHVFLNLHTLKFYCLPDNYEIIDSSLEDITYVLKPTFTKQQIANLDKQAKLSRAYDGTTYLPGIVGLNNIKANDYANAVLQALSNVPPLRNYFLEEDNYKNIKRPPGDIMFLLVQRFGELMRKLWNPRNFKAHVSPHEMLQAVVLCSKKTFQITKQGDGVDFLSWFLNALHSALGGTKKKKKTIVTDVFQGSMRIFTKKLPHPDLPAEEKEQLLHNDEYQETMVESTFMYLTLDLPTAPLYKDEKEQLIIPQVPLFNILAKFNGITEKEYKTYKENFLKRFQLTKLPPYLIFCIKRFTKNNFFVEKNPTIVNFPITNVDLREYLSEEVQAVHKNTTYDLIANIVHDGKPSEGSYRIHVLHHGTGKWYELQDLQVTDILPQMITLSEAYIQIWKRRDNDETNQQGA

SMILES	tested on	assay	test system	conditions	how to read	endpoint	result
Cc1cc2sc(N)nc2c2cccnc12	–	LC-MS	BALB/c mice, female	intraperitoneal, 30 mg/kg, 0.5 h	–	plasma concentration	1410 ± 160 ng/mL
Cc1c(-c2ccc(N3CCc4cccc(C(=O)Nc5nc6ccccc6s5)c4C3)nc2C(=O)O)cnn1CC12CC3(C)CC(C)(C1)CC(OCCNCC[C@H](O)CO)(C3)C2	–	–	anaesthetized male beagle dog	iv infusion, 0.01 mg/kg/min, 75 min	–	plasma concentration	< 2 ng/mL
Cn1cc([C@H]2C[C@H]3CSC(N)=N[C@@]3(c3ccc(F)cc3F)CO2)cn1	–	–	male 129/SVE mouse, plasma	subcutaneous, 50 mg/kg, 6 h	–	plasma concentration	5.35 µM
CC(=O)N(C)C1CCN(c2cc(F)cc(NC(=O)c3cc4c(F)ccc(C)c4[nH]3)c2)C1 (stereo not drawn)	–	–	CD1 mouse, plasma	intravenous, 1 mg/kg, 4 h	–	plasma concentration	6.27 ng/mL
O=Cc1cc2c(cc1F)C(=O)N(C1CCC(=O)NC1=O)C2 (stereo not drawn)	–	–	CD-1 mice	intravenous, 1 mg/kg, 8 h	–	plasma concentration	not detected
CCN1CCN(Cc2ccc(NC(=O)c3ccc(C)c(NC(=O)c4cncc(-c5cccs5)c4)c3)cc2C(F)(F)F)CC1	–	LC-MS/MS	C57BL/6 mouse, plasma	intraperitoneal, 30 mg/kg single dose, 4 h	–	plasma concentration	225 ng/mL and 564 ng/mL and 258 ng/mL
NCc1cc2c(cc1F)C(=O)N(C1CCC(=O)NC1=O)C2 (stereo not drawn)	–	–	CD-1 mice	intravenous, 1 mg/kg, 8 h	–	plasma concentration	not detected
CCOCc1nc(O)c(-c2nnc(Cc3ccc(Cl)cn3)o2)c(O)c1-c1c(OC)cccc1OC	–	–	anaesthetized rats, plasma	intravenous infusion, 100 µg/kg/min for 15 min, 30 min washout	–	plasma concentration	10.3 ± 0.777 µM
O=C(CO)N[C@H]1[C@H]([C@H](O)[C@H](O)CO)O[C@](O)(C(=O)O)C[C@@H]1O	–	binding, equilibrium dialysis LC-MS	–	5 µM, thermostabilized A2AR-BRIL construct	relative to: no-protein control, direction not given	z-scored log2 fold change	0.169
COc1cccc(-c2n[nH]c(SCc3ccccn3)n2)c1OC	–	–	Sprague-Dawley rats, both sexes	oral dietary, 10 mg/kg/day, day 90, 1 h	–	plasma concentration	467 ng/mL
C[C@H](N)C(=O)O	–	binding, equilibrium dialysis LC-MS	–	5 µM, thermostabilized A2AR-BRIL construct	relative to: no-protein control, direction not given	z-scored log2 fold change	0.1
COc1cc2oc(=O)cc(C)c2cc1CCC(=O)O	Ubiquitin carboxyl-terminal hydrolase 39, ZnF-UBD domain (Homo sapiens, UniProt Q53GS9)	–	–	–	–	Kd	> 1000 µM

For quick reference, copied from above:
SMILES	tested on	assay	test system	conditions	how to read	endpoint	result
CC(=O)N(C)C1CCN(c2cc(F)cc(NC(=O)c3cc4c(F)ccc(C)c4[nH]3)c2)C1 (stereo not drawn)	–	–	CD1 mouse, plasma	intravenous, 1 mg/kg, 4 h	–	plasma concentration	6.27 ng/mL
